# Published values of several laboratories.
# Parts stem from different laboratories: compare values within a part only. “And” joins repeats or separate records; there may be more than shown.
# UniProt P28223, sequence (whole entry, looked up): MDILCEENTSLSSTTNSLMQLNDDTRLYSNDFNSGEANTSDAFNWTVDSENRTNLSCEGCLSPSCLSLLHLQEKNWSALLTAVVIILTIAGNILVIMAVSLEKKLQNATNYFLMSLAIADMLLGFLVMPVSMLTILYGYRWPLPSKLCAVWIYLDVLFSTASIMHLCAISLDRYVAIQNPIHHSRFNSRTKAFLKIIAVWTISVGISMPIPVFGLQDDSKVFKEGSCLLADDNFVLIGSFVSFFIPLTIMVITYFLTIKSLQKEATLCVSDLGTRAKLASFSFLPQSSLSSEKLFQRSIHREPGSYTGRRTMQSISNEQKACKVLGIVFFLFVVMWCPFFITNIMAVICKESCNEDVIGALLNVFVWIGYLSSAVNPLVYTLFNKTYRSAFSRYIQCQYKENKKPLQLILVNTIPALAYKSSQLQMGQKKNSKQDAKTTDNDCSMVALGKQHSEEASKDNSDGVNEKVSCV

# Block 1 — technique: phase 2a trial; species: idiopathic pulmonary fibrosis patients
# SMILES: CC(C)n1cnc(-c2ccc(F)cc2)c1-c1ncc(C(=O)Nc2ccc(N3CCN(C)CC3)cc2)[nH]1
dose,setting,patients with aortic valve incompetence [%]
dose not given,"adverse event grade 2, all dose arms pooled",0
dose not given,"adverse event grade 3, all dose arms pooled",0
30 mg once daily,adverse event grade 1,1
30 mg once daily,adverse event grade 4,0
60 mg once daily,adverse event grade 4,0
30 mg once daily,adverse event grade 5,0

# Block 2 — cell line: mouse MPNST tumor cells; technique: high-content immunofluorescence imaging; measured: nuclear SOX9; concentration: 10 µM; time: 12 h; setting: mean of 2 replicates; relative to: DMSO control; reading: higher = more nuclear SOX9
Compound,nuclear SOX9 intensity
CS(=O)(=O)NCC1CCC(Nc2nc3c(s2)CCSc2ccccc2-3)CC1 (centres unmarked),124 % of DMSO
CC[C@H]1OC(=O)[C@H](C)[C@@H](O[C@H]2C[C@@](C)(OC)[C@@H](O)[C@H](C)O2)[C@H](C)[C@@H](O[C@@H]2O[C@H](C)C[C@H](N(C)C)[C@H]2O)[C@](C)(O)C[C@@H](C)C(=O)[C@H](C)[C@@H](O)[C@]1(C)O,109 % of DMSO
CC(C)(C)CC(=O)Nc1c(F)cc(C(=O)N=c2sccn2COP(=O)(O)O)cc1F,97.8 % of DMSO
CN[C@@H]1[C@H](O[C@H]2[C@H](O[C@H]3[C@H](O)[C@@H](O)[C@H](N=C(N)N)[C@@H](O)[C@@H]3N=C(N)N)O[C@@H](C)[C@]2(O)C=O)O[C@@H](CO)[C@H](O)[C@H]1O,94.1 % of DMSO
CC(=O)O[C@]1(C(C)=O)CC[C@H]2[C@@H]3C=C(C)C4=CC(=O)CC[C@]4(C)[C@H]3CC[C@@]21C,102 % of DMSO and 99.5 % of DMSO
Nc1nc(NCc2ccccc2)nc(-c2ccccc2CO)n1,107 % of DMSO
Cc1cc(C(C)(C)CC(C)(C)C)ccc1OCCOCC[N+](C)(C)Cc1ccccc1,125 % of DMSO
CCOC(=O)N1CCC(Nc2c(NCCN3CCN(c4cccc(C(F)(F)F)c4)CC3)c(=O)c2=O)CC1,95.7 % of DMSO

# Block 3 — observed: enzyme activity; action: inhibitor; concentration: 10 µM
# Target: Calcium/calmodulin-dependent protein kinase type II subunit alpha (CAMK2A, Homo sapiens, UniProt Q9UQM7)
# UniProt Q9UQM7, sequence (whole entry, looked up): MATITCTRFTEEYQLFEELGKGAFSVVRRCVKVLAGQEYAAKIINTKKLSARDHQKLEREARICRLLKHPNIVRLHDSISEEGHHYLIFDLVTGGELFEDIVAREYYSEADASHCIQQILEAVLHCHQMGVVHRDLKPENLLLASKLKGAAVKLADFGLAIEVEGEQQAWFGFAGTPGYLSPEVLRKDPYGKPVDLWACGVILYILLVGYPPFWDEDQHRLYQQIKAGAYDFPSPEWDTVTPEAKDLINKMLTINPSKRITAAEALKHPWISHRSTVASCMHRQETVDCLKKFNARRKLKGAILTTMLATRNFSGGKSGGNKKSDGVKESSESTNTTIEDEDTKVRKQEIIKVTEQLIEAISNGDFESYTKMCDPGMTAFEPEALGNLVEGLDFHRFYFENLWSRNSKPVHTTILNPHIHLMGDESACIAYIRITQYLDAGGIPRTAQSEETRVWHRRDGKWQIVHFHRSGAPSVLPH
Compound,inhibition
C/C=C(\C)C(=O)O[C@H]1[C@H](O)[C@]2(COC(C)=O)[C@H](O)C[C@]3(C)C(=CC[C@@H]4[C@@]5(C)CC[C@H](O[C@@H]6O[C@H](C(=O)O)[C@@H](O[C@@H]7O[C@H](CO)[C@@H](O)[C@H](O)[C@H]7O)[C@H](O)[C@H]6O[C@@H]6O[C@H](CO)[C@@H](O)[C@H](O)[C@H]6O)[C@](C)(CO)[C@@H]5CC[C@]43C)[C@@H]2CC1(C)C,-23%
NC(CCSSCCC(N)C(=O)O)C(=O)O (centres unmarked),-10%
CC(C)C(=O)C(=O)O,-57%
CC#C[C@]1(O)CC[C@H]2[C@@H]3CCC4=CC(=O)CCC4=C3[C@@H](c3ccc(N(C)C)cc3)C[C@@]21C,-8%
CCN(CC)c1ccc(C(=C2C=CC(=[N+](CC)CC)C=C2)c2cc(S(=O)(=O)O)ccc2S(=O)(=O)[O-])cc1,18%
O=Cc1cc(O)ccc1O,-20%
CC(C)=CCC/C(C)=C/C=O,0%
CN[C@H]1CC[C@@H](c2ccc(Cl)c(Cl)c2)c2ccccc21,-9%

# Other studies, line by line
Compound,target,observed,concentration,endpoint,result
COCCc1ccc(-c2c(C)nc3c(N4CCOCC4)ccnn23)cn1,"5-hydroxytryptamine receptor 2A (HTR2A, Homo sapiens, UniProt P28223)",ligand displacement,10 µM,inhibition,45.9%
